Assay results collected from several papers.
Lines come from different studies, so protocols differ. Values joined by “and” are separate records of one study, mostly repeats; a detail may differ. ± marks the error that the study gave.
UniProt P35372, sequence (whole entry, looked up): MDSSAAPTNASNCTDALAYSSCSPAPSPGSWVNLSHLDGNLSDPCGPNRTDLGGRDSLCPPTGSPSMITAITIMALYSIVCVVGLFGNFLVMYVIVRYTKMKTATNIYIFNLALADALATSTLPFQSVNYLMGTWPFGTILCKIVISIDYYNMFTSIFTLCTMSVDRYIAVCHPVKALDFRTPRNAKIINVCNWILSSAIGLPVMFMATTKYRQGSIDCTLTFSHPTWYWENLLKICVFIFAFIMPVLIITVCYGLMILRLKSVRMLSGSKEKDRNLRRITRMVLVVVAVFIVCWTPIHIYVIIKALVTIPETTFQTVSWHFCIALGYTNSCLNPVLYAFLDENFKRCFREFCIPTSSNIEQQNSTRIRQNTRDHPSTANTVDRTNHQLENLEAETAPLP
UniProt Q9Y5Y9, sequence (whole entry, looked up): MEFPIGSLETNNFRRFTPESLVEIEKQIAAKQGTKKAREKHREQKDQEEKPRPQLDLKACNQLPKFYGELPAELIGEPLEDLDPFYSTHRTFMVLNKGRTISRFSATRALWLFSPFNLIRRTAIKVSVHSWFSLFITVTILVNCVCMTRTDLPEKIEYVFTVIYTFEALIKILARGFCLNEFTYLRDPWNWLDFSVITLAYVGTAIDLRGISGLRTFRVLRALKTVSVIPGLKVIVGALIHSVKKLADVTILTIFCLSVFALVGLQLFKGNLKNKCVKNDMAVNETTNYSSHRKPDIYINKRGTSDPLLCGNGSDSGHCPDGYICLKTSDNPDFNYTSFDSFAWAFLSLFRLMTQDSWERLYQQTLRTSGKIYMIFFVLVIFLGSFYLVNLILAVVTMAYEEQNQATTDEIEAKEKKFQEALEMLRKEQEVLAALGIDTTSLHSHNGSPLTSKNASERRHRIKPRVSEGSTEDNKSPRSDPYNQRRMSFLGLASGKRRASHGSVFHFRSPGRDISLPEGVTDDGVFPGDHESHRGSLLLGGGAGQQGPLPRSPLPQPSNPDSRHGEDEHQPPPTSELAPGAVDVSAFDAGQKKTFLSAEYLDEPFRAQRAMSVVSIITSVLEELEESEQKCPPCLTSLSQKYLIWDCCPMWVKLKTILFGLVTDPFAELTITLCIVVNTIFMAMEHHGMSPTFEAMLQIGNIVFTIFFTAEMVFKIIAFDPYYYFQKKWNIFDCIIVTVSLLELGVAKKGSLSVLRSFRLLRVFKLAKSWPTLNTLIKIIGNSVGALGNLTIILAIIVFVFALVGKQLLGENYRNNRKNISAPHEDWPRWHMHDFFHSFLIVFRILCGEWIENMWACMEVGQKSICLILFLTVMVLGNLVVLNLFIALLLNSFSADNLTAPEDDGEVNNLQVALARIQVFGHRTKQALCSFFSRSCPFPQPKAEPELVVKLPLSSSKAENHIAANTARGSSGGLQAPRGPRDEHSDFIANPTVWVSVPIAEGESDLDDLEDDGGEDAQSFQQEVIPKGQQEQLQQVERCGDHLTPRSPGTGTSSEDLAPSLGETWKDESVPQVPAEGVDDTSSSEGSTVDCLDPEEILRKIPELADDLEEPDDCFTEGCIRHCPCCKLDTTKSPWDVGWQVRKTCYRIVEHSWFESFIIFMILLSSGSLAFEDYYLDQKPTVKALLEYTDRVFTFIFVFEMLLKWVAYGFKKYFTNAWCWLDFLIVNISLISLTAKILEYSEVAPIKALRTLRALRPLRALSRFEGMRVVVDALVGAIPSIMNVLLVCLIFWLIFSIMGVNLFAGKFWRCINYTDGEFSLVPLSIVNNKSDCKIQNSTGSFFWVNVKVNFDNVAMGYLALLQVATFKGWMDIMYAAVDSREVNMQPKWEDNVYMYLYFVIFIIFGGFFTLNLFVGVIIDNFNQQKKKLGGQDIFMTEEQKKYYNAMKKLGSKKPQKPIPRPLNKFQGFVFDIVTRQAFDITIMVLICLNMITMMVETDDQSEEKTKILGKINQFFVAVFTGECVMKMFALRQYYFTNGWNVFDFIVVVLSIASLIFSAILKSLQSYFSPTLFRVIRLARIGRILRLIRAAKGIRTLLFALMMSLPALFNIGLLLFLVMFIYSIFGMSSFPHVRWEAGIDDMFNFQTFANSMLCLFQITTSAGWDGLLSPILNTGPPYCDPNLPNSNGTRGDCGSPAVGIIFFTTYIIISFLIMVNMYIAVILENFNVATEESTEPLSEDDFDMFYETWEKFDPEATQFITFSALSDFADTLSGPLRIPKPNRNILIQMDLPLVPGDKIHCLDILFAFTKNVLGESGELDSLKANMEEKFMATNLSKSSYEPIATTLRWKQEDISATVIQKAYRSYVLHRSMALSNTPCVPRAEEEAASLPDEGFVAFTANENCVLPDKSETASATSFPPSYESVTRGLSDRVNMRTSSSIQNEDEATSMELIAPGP

Structure (SMILES) = Nc1ccn(C2CCC(OC(C(=O)O)P(=O)(O)O)C2)c(=O)n1 (racemic); target or system = HIV-1 reverse transcriptase K65R; assay = enzyme activity, inhibitor; conditions = added: poly(rI)·oligo(dC), [3H]dCTP; scale = relative to: mutant over wild type; quantity = fold resistance; value = 1.6 fold
Structure (SMILES) = Cc1cc(/C=C/C#N)cc(C)c1-n1cnc2cnc(Nc3ccc(C#N)cc3)nc21; target or system = HIV-1; assay = viral replication, single-round infection; system = RT mutant E40K; quantity = EC50; value = 0.5 ± 0.1 nM
Structure (SMILES) = CC[C@H](C)[C@H](NC(=O)[C@H](CCCCN)NC(=O)[C@H](Cc1ccc(O)cc1)NC(=O)[C@H](CCC(N)=O)NC(=O)[C@H](Cc1c[nH]cn1)NC(=O)[C@@H](NC(=O)[C@H](Cc1ccccc1)NC(=O)[C@H](Cc1c[nH]cn1)NC(=O)[C@@H](NC(=O)[C@@H](NC(=O)CNC(=O)[C@H](CCCNC(=N)N)NC(=O)[C@H](Cc1c[nH]c2ccccc12)NC(=O)[C@H](CC(C)C)NC(=O)[C@H](CO)NC(=O)[C@H](CCC(=O)O)NC(=O)[C@H](CC(C)C)NC(=O)[C@H](CCC(=O)O)NC(=O)[C@H](CC(N)=O)NC(=O)[C@H](CC(C)C)NC(=O)[C@H](CC(=O)O)NC(=O)[C@H](CO)NC(=O)[C@H](CCC(=O)O)NC(=O)[C@@H](NC(=O)[C@H](CC(C)C)NC(=O)[C@H](CCC(N)=O)NC(=O)[C@H](CCC(=O)O)NC(=O)[C@H](CCC(=O)O)NC(=O)[C@H](CC(C)C)NC(=O)[C@@H]1CCCN1C(=O)[C@@H](N)Cc1ccccc1)[C@@H](C)O)[C@@H](C)O)[C@@H](C)O)C(C)C)C(=O)N[C@@H](CCSC)C(=O)N1CCC[C@H]1C(=O)N[C@@H](Cc1ccccc1)C(=O)N[C@@H](CCCNC(=N)N)C(=O)N[C@@H](CCCCN)C(=O)N[C@@H](CC(C)C)C(=O)N[C@H](C(=O)N[C@@H](Cc1ccccc1)C(=O)N[C@@H](CCCCN)C(=O)N[C@@H](CCCNC(=N)N)C(=O)N[C@@H](CCCNC(=N)N)C(=O)N[C@@H](CCCCN)C(=O)N[C@@H](CC(N)=O)C(N)=O)C(C)C; target or system = Escherichia coli; system = ATCC 35218, MHC medium with bicarbonate; quantity = MIC; value = > 50 µM
Structure (SMILES) = Cc1ccc(NS(=O)(=O)c2c(C(=O)N3CCCCCC3)c(C)n(C)c2C)c(Cl)c1; target or system = Monkeypox virus; system = Vero C1008, wild type; conditions = 0.12 µM, 72 h; scale = relative to: untreated; quantity = relative infection; value = 74% and 84%
Structure (SMILES) = COCCCn1ccn2cc(C(=O)NCc3ccc(F)cc3F)c(=O)c(O)c2c1=O; target or system = human immunodeficiency virus 1; assay = single-round vector infection; system = integrase N155H; quantity = EC50; value = 8.2 ± 1.3 nM
Structure (SMILES) = CC(C)C[C@H](NC(=O)[C@H](CO[C@@H]1O[C@H](CO)[C@@H](O)[C@H](O)[C@H]1O)NC(=O)[C@H](CCCCN)NC(=O)[C@H](CC(C)C)NC(=O)[C@H](C)NC(=O)[C@H](CCCCN)NC(=O)[C@H](CCC(=O)O)NC(=O)[C@H](C)NC(=O)[C@H](CC(C)C)NC(=O)[C@H](CC(N)=O)NC(=O)[C@@H]1CCCN1C(=O)[C@H](CC(C)C)NC(=O)[C@H](Cc1ccccc1)NC(=O)CNC(=O)[C@H](NC(=O)[C@@H](N)Cc1ccc(O)cc1)[C@H](C)O)C(N)=O; target or system = OPRM1 (Homo sapiens, UniProt P35372); assay = radioligand displacement; system = CHO membranes; conditions = 60 min, pH 7.5, 25 °C, added: 0.25 nM [3H]DAMGO; quantity = Ki; value = 6.2 ± 0.47 nM
Structure (SMILES) = CC(C)C[C@@H]1NC(=O)[C@H](CCCNC(=N)N)NC(=O)[C@@H]2CCCN2C(=O)[C@@H]2CSSC[C@H](NC(=O)CNC(=O)[C@@H]3CCCN3C(=O)[C@H](CCCCN)NC(=O)[C@H](CC(=O)O)NC(=O)[C@@H](NC(=O)CN)C(C)C)C(=O)N[C@@H](CCCNC(=N)N)C(=O)N[C@@H](Cc3ccc(O)cc3)C(=O)N[C@@H](CC(C)C)C(=O)N[C@@H](Cc3ccccc3)C(=O)NCC(=O)NCC(=O)N[C@H]3CSSC[C@H](NC(=O)CNC1=O)C(=O)N[C@@H](CCCCN)C(=O)NCC(=O)N[C@@H](CCCCN)C(=O)NCC(=O)N[C@@H](Cc1c[nH]cn1)C(=O)N[C@@H](CC(=O)O)C(=O)N[C@@H](Cc1ccc(O)cc1)C(=O)N[C@H](C(=O)N[C@@H](C)C(=O)N[C@@H](Cc1c[nH]c4ccccc14)C(=O)N[C@@H](CC(=O)O)C(=O)NCC(=O)N[C@H](C(=O)N[C@@H](Cc1ccccc1)C(=O)N[C@@H](CO)C(=O)N[C@@H](CC(=O)O)C(=O)O)[C@@H](C)O)CSSC[C@H](NC(=O)[C@H](CC(=O)O)NC(=O)[C@H](CC(=O)O)NC(=O)[C@H](CC(=O)O)NC(=O)[C@H](CO)NC(=O)[C@H](CCCCN)NC3=O)C(=O)N2; target or system = SCN10A (Homo sapiens, UniProt Q9Y5Y9); conditions = 1 µM; quantity = activation V0.5; value = -14.5 ± 0.8 mV
Structure (SMILES) = CC(C)n1ccn2cc(C(=O)NCc3ccc(F)cc3F)c(=O)c(O)c2c1=O; target or system = HIV-1; assay = viral replication, single-round vector infection; system = IN G140S/Q148R; quantity = EC50; value = 15.3 ± 1 nM
Structure (SMILES) = CCCCCCCCCCCCCCCC(=O)N[C@@H](CCC(=O)NCCOCCOCCC(=O)NCCOCCOCCC(=O)NCCCC[C@H](NC(=O)[C@H](CC(=O)O)NC(=O)[C@H](CC(C)C)NC(=O)[C@H](Cc1ccc(O)cc1)NC(=O)[C@H](CCCCN)NC(=O)[C@H](CO)NC(=O)[C@H](Cc1ccc(O)cc1)NC(=O)[C@H](CC(=O)O)NC(=O)[C@H](CO)NC(=O)[C@@H](NC(=O)[C@H](Cc1ccccc1)NC(=O)[C@@H](NC(=O)CNC(=O)[C@H](CCC(N)=O)NC(=O)[C@@H](CO)NC(=O)[C@@H](N)Cc1c[nH]cn1)[C@@H](C)O)[C@@H](C)O)C(=O)N[C@@H](CCCNC(=N)N)C(=O)N[C@@H](CCCNC(=N)N)C(=O)N[C@@H](C)C(=O)N[C@@H](CCC(N)=O)C(=O)N[C@@H](CC(=O)O)C(=O)N[C@@H](Cc1ccccc1)C(=O)N[C@H](C(=O)N[C@@H](CCC(N)=O)C(=O)N[C@@H](Cc1c[nH]c2ccccc12)C(=O)N[C@@H](CC(C)C)C(=O)N[C@@H](CC(C)C)C(=O)N[C@@H](CC(N)=O)C(=O)N[C@H](C(=O)NCC(=O)NCC(=O)N1CCC[C@H]1C(=O)N[C@@H](CO)C(=O)N[C@@H](CO)C(=O)NCC(=O)N[C@@H](C)C(=O)N1CCC[C@H]1C(=O)N1CCC[C@H]1C(=O)N1CCC[C@H]1C(=O)N[C@@H](CO)C(N)=O)[C@@H](C)O)C(C)C)C(=O)O; assay = measured: CK; system = rhesus monkey, male; conditions = subcutaneous, 300 µg/kg once daily, 28 days; quantity = serum enzyme activity; value = 123 ± 49 U/L
Structure (SMILES) = O=C(NCc1ccc(F)cc1F)c1cn2ccn(CCCCCO)c(=O)c2c(O)c1=O; target or system = human immunodeficiency virus 1; assay = single-round vector infection; system = integrase G140S/Q148H; quantity = EC50; value = 626 ± 92.5 nM
Structure (SMILES) = O=c1cc(-c2ccccc2)oc2c(Br)c(O)c(O)c(O)c12; target or system = chikungunya virus; system = C57BL/6 mouse, CHIKV-infected, plasma; conditions = oral, 250 mg/kg twice daily, 2 h after dose 5; quantity = Cmax; value = 10000 ± 5420 ng/mL
Structure (SMILES) = CC[C@H](C)[C@H](NC(=O)[C@H](CCCCN)NC(=O)[C@H](CCCCN)NC(=O)[C@H](CC(C)C)NC(=O)[C@H](Cc1c[nH]c2ccccc12)NC(=O)CN)C(=O)NCC(=O)N[C@@H](CCCCN)C(=O)N[C@@H](CCCCN)C(=O)N[C@H](C(=O)N[C@@H](CCC(=O)O)C(=O)N[C@@H](CCCNC(=N)N)C(=O)N[C@H](C(=O)NCC(=O)N[C@@H](CCC(N)=O)C(=O)N[C@@H](Cc1c[nH]cn1)C(=O)N[C@H](C(=O)N[C@@H](CCCNC(=N)N)C(=O)N[C@@H](CC(=O)O)C(=O)N[C@@H](C)C(=O)N[C@H](C(=O)N[C@H](C(=O)N[C@@H](CCC(N)=O)C(=O)N[C@H](C(=O)N[C@H](C(=O)NCC(=O)N[C@H](C(=O)N[C@@H](C)C(=O)N[C@@H](CCC(N)=O)C(=O)N[C@@H](CCC(N)=O)C(=O)N[C@@H](C)C(=O)N[C@@H](C)C(=O)N[C@@H](CC(N)=O)C(=O)N[C@H](C(=O)N[C@@H](C)C(=O)N[C@@H](C)C(=O)N[C@H](C(=O)N[C@@H](CC(C)C)C(=O)N[C@@H](CCCCN)C(N)=O)[C@@H](C)O)C(C)C)C(C)C)[C@@H](C)CC)[C@@H](C)O)[C@@H](C)CC)[C@@H](C)O)[C@@H](C)O)C(C)C)[C@@H](C)CC; target or system = Klebsiella pneumoniae; assay = broth microdilution; system = DSM 30104, CAMHB; quantity = MIC; value = 4 µg/mL
Structure (SMILES) = Cc1cc(/C=C/C#N)cc(C)c1Nc1nc(Nc2ccc(C#N)cc2)ncc1N; target or system = HIV-1; assay = viral replication, single-round infection; system = RT mutant K103N; quantity = EC50; value = 0.7 ± 0.1 nM
Structure (SMILES) = CC(C)C[C@H](NC(=O)OCc1ccccc1)C(=O)N[C@@H](C[C@@H]1CCNC1=O)C(O)S(=O)(=O)O (stereo partly drawn); target or system = Replicase polyprotein 1ab, main protease (Bat coronavirus HKU9, UniProt P0C6W5); assay = viral replication; quantity = EC50; value = 11100 nM
Structure (SMILES) = CC[C@H](C)[C@@H]1NC(=O)[C@H](CC(=O)O)NC(=O)[C@H]([C@@H](C)O)NC(=O)[C@@H]2CSSC[C@@H]3NC(=O)[C@H](CC(C)C)NC(=O)[C@H](CC(N)=O)NC(=O)[C@H](CC(C)C)NC(=O)[C@H](CCCNC(=N)N)NC(=O)[C@H](Cc4ccc(O)cc4)NC(=O)[C@H](CC(N)=O)NC(=O)[C@H](CCSC)NC(=O)[C@H](CO)NC(=O)[C@H]([C@@H](C)O)NC(=O)[C@H](CCCNC(=N)N)NC(=O)[C@H](CSSC[C@H](NC(=O)[C@H]([C@@H](C)O)NC(=O)[C@H](CCCCN)NC(=O)[C@H](CCCNC(=N)N)NC3=O)C(=O)NCC(=O)N[C@@H](CO)C(=O)N[C@H](C(=O)O)CSSC[C@H](NC(=O)[C@@H](NC(=O)[C@@H](N)CCCNC(=N)N)[C@@H](C)O)C(=O)N[C@@H](CCCCN)C(=O)N[C@@H](CC(=O)O)C(=O)N[C@@H](CC(C)C)C(=O)N[C@@H]([C@@H](C)CC)C(=O)N3CCC[C@H]3C(=O)N[C@@H](C(C)C)C(=O)N[C@@H](CO)C(=O)N[C@@H](CCC(=O)O)C(=O)N2)NC(=O)[C@H](CCCNC(=N)N)NC1=O; target or system = KcsA-Shaker channel; assay = two-electrode voltage clamp; system = Xenopus oocytes; conditions = 0 mV; quantity = koff; value = 0.1 ± 0.02 s⁻¹

A few entries again:
Structure (SMILES) = CC(C)C[C@H](NC(=O)OCc1ccccc1)C(=O)N[C@@H](C[C@@H]1CCNC1=O)C(O)S(=O)(=O)O (stereo partly drawn); target or system = Replicase polyprotein 1ab, main protease (Bat coronavirus HKU9, UniProt P0C6W5); assay = viral replication; quantity = EC50; value = 11100 nM
Structure (SMILES) = CC[C@H](C)[C@H](NC(=O)[C@H](CCCCN)NC(=O)[C@H](Cc1ccc(O)cc1)NC(=O)[C@H](CCC(N)=O)NC(=O)[C@H](Cc1c[nH]cn1)NC(=O)[C@@H](NC(=O)[C@H](Cc1ccccc1)NC(=O)[C@H](Cc1c[nH]cn1)NC(=O)[C@@H](NC(=O)[C@@H](NC(=O)CNC(=O)[C@H](CCCNC(=N)N)NC(=O)[C@H](Cc1c[nH]c2ccccc12)NC(=O)[C@H](CC(C)C)NC(=O)[C@H](CO)NC(=O)[C@H](CCC(=O)O)NC(=O)[C@H](CC(C)C)NC(=O)[C@H](CCC(=O)O)NC(=O)[C@H](CC(N)=O)NC(=O)[C@H](CC(C)C)NC(=O)[C@H](CC(=O)O)NC(=O)[C@H](CO)NC(=O)[C@H](CCC(=O)O)NC(=O)[C@@H](NC(=O)[C@H](CC(C)C)NC(=O)[C@H](CCC(N)=O)NC(=O)[C@H](CCC(=O)O)NC(=O)[C@H](CCC(=O)O)NC(=O)[C@H](CC(C)C)NC(=O)[C@@H]1CCCN1C(=O)[C@@H](N)Cc1ccccc1)[C@@H](C)O)[C@@H](C)O)[C@@H](C)O)C(C)C)C(=O)N[C@@H](CCSC)C(=O)N1CCC[C@H]1C(=O)N[C@@H](Cc1ccccc1)C(=O)N[C@@H](CCCNC(=N)N)C(=O)N[C@@H](CCCCN)C(=O)N[C@@H](CC(C)C)C(=O)N[C@H](C(=O)N[C@@H](Cc1ccccc1)C(=O)N[C@@H](CCCCN)C(=O)N[C@@H](CCCNC(=N)N)C(=O)N[C@@H](CCCNC(=N)N)C(=O)N[C@@H](CCCCN)C(=O)N[C@@H](CC(N)=O)C(N)=O)C(C)C; target or system = Escherichia coli; system = ATCC 35218, MHC medium with bicarbonate; quantity = MIC; value = > 50 µM
